Results collected from several papers.
Every numbered part comes from another study and shows a few of its results, in no order.
Sequence of UniProt P10721 (whole entry, unmodified, looked up): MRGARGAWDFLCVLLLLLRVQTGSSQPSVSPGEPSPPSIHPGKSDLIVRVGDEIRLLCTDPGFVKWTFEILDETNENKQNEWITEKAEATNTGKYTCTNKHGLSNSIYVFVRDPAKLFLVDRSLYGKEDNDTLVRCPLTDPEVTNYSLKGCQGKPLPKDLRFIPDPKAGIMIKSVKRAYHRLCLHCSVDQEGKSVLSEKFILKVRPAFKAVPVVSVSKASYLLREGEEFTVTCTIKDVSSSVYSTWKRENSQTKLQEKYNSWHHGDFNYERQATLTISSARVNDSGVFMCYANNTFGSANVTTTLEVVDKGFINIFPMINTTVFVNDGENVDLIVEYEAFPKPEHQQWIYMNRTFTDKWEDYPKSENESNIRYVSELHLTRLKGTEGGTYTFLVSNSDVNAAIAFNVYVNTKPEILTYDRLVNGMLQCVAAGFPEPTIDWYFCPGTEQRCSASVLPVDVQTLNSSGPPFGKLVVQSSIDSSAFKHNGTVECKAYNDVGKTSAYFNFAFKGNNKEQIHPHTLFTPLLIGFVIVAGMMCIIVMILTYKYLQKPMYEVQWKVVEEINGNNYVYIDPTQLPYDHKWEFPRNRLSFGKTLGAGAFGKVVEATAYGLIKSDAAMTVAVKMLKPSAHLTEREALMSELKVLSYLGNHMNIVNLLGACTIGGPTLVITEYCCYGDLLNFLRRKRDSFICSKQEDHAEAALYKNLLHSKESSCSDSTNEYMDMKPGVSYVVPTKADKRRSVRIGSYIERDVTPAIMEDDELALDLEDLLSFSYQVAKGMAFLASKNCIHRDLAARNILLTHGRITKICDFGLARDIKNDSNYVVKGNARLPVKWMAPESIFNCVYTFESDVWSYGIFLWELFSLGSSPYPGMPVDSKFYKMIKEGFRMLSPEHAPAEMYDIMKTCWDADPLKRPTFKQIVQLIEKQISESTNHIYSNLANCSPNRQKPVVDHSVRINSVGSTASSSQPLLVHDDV
Sequence of UniProt P50750 (whole entry, looked up): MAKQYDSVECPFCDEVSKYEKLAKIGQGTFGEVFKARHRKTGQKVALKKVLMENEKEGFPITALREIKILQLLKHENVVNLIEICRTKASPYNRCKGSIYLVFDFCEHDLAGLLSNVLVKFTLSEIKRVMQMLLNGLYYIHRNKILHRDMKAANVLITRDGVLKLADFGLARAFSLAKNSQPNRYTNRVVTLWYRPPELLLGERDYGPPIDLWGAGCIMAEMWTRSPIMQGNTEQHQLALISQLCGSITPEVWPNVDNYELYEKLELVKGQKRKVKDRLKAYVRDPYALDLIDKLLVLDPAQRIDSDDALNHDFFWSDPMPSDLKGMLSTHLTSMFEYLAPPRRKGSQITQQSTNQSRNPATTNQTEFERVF
Sequence of UniProt Q8N4C8 (whole entry, looked up): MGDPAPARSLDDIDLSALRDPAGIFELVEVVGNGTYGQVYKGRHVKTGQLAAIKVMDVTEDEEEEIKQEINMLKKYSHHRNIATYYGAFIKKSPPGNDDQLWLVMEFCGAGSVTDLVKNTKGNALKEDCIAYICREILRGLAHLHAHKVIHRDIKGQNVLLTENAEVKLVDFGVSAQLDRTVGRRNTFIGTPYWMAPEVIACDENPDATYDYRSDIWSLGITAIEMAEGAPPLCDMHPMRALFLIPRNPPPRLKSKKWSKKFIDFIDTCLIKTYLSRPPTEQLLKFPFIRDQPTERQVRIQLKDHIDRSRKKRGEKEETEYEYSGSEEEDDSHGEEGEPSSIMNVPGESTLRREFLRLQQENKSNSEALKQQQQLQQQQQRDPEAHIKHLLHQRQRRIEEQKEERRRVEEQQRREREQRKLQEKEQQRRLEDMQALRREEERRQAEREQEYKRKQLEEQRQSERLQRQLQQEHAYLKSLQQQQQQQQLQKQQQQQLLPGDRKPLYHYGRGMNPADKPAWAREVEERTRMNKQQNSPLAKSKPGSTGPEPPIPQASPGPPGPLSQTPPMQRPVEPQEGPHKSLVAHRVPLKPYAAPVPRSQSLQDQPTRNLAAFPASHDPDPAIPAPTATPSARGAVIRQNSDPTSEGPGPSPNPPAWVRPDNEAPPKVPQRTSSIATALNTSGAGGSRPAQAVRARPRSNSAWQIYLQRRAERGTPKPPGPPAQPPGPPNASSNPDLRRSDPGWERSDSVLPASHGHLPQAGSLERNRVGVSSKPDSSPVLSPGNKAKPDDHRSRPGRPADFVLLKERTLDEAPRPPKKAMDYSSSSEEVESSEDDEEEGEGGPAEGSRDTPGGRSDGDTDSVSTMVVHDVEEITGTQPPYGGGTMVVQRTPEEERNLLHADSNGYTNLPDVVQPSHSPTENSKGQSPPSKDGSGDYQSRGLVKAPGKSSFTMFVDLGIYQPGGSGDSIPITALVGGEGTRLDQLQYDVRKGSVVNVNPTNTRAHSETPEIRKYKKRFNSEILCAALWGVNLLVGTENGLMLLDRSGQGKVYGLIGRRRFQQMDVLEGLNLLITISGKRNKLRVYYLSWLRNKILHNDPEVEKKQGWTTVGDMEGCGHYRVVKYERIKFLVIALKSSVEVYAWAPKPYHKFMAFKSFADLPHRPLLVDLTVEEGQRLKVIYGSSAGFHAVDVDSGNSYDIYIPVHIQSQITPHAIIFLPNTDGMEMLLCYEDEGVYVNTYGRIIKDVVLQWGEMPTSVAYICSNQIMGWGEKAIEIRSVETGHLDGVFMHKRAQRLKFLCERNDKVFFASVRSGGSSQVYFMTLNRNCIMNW
Sequence of UniProt Q7KZI7 (whole entry, looked up): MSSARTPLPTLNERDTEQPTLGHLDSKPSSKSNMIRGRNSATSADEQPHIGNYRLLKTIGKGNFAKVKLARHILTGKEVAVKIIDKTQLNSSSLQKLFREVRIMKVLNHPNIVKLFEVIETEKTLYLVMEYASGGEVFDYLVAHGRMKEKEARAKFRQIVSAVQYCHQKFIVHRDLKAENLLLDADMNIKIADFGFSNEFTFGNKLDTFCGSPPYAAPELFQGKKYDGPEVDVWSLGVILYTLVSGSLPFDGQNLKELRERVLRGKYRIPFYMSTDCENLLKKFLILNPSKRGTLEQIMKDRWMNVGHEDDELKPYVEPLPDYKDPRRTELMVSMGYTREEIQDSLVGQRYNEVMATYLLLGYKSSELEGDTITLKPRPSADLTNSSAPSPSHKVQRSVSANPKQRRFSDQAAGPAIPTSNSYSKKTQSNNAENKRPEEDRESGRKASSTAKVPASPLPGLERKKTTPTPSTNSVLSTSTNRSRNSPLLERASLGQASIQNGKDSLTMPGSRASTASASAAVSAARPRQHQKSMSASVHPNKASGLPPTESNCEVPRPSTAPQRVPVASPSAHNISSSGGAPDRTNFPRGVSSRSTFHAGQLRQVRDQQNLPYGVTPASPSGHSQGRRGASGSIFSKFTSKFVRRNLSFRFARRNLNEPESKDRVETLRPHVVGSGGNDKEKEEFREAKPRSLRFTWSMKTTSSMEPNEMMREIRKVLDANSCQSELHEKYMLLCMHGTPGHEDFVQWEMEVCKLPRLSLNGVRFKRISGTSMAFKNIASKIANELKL
Sequence of UniProt P49761 (whole entry, looked up): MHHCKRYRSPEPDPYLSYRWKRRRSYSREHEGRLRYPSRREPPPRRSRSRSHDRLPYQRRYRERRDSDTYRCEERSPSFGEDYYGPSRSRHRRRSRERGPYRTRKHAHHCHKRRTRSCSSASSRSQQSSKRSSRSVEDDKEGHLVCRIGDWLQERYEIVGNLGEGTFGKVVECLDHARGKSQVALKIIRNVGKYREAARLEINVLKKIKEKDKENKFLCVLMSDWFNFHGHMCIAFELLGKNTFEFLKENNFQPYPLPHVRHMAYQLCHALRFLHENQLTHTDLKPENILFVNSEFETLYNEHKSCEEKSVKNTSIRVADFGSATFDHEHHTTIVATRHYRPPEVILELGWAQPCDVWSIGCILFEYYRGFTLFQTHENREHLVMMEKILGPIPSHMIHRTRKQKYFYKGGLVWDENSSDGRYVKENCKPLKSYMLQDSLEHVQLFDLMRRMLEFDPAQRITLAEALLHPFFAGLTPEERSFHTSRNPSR
Sequence of UniProt P32298 (whole entry, looked up): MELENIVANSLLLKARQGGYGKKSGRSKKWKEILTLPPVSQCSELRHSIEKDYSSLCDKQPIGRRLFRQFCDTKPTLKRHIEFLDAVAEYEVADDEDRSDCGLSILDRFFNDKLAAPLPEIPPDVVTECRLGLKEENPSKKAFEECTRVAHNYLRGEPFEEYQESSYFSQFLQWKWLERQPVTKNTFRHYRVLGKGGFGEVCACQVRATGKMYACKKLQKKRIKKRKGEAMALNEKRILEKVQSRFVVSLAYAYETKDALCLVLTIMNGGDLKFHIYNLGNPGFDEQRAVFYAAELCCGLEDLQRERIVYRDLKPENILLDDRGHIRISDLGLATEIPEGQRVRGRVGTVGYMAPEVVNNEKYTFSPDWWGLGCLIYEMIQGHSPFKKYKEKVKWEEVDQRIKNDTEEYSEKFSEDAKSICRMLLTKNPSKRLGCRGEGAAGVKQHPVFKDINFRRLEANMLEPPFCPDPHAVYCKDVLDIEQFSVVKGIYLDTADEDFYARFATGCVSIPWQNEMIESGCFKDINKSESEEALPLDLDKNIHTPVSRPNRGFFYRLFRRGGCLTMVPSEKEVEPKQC

Block 1 — observed: cell-free assay; method: competition with immobilised ligand; tested at: 1 µM
Structure (SMILES): CCC(=O)N[C@H]1CC[C@@H](C(=O)N(C)c2ccc(-c3nc4ccccc4o3)cc2)C1
| target | remaining binding |
| --- | --- |
| IRAK1 (Homo sapiens, UniProt P51617) | 83% |
| MAP3K20 (Homo sapiens, UniProt Q9NYL2) | 89% |
| FLT3 (Homo sapiens, UniProt P36888) | 78% |
| SGK2 (Homo sapiens, UniProt Q9HBY8) | 93% |
| PIK3CA (Homo sapiens, UniProt P42336, I800L) | 63% |
| MARK2 (Homo sapiens, UniProt Q7KZI7) | 100% |
| BMPR2 (Homo sapiens, UniProt Q13873) | 98% |
| Tyrosine-protein kinase JAK1, JH1 (JAK1, Homo sapiens, UniProt P23458) | 100% |
| CDK17 (Homo sapiens, UniProt Q00537) | 100% |
| PRKD1 (Homo sapiens, UniProt Q15139) | 100% |
| PTK2B (Homo sapiens, UniProt Q14289) | 100% |
| MAPK11 (Homo sapiens, UniProt Q15759) | 82% |
| TXK (Homo sapiens, UniProt P42681) | 100% |
| KIT (Homo sapiens, UniProt P10721, V559D) | 94% |

Block 2 — Structure (SMILES): O=C1NC(=O)/C(=C/c2ccc3c(c2)OC(F)(F)O3)S1; observed: enzyme activity; mode: inhibitor; tested at: 0.5 µM; reference: control
| target | remaining activity [%] |
| --- | --- |
| MINK1 (Homo sapiens, UniProt Q8N4C8) | 90.1 |
| MAP2K1 (Homo sapiens, UniProt Q02750) | 95.6 |
| Cyclin-dependent kinase 9, with cyclin K (CDK9, Homo sapiens, UniProt P50750) | 93.5 |
| GRK4 (Homo sapiens, UniProt P32298) | 102 |
| AKT2 (Homo sapiens, UniProt P31751) | 96.2 |
| CLK4 (Homo sapiens, UniProt Q9HAZ1) | 88.8 |
| MAPK1 (Homo sapiens, UniProt P28482) | 85.7 |
| NEK3 (Homo sapiens, UniProt P51956) | 92.5 |
| CLK3 (Homo sapiens, UniProt P49761) | 96.8 |
| DDR2 (Homo sapiens, UniProt Q16832) | 90.1 |
| PNCK (Homo sapiens, UniProt Q6P2M8) | 96 |
| CDC42BPB (Homo sapiens, UniProt Q9Y5S2) | 96.4 |
| CAMK4 (Homo sapiens, UniProt Q16566) | 101 |
| MET (Homo sapiens, UniProt P08581) | 96.2 |

Block 3 — method: RNA Bind-n-Seq; form: RNA; medium: in vitro; tested at: not given; reference: input RNA pool; reading: higher = stronger binding
Target: RING finger protein unkempt homolog, zinc fingers 1-6, GST-SBP tag (UNK, Homo sapiens, UniProt Q9C0B0, residues 30-357)
Sequence of UniProt Q9C0B0 (30-357, looked up): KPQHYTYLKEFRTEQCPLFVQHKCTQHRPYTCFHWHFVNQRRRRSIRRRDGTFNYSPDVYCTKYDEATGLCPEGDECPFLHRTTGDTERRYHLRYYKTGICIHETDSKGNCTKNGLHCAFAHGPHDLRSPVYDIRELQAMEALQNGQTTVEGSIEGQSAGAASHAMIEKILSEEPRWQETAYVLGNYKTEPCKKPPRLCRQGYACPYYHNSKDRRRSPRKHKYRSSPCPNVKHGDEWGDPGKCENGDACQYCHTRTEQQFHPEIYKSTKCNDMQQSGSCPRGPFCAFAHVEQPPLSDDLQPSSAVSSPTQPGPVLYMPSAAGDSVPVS
Notes: RNA with constant flanks, human-mouse chimeric sites, ends assumed
Constant ends, left off below: GGGAGUUCUACAGUCCGACGAUC … CAACAGAGGAUUGAGCAUCA
| Oligonucleotide | bound/input enrichment |
| --- | --- |
| UAUAUCACCAAUGUCCUACAAAAUCCUGACUUGGCUCUGAGAAUGGCUGUGCGGAACAACUUAGCCGGUGCUGAAGAACUCUUUGCCCGGAAAUUUAAUGCUCUUUUCGCCCAGGGAAAC | 0.402 ratio |
| AAAGCCCAAGUAUUUUGAAAAAACUCGAACAGAUUUGACAAGGGUAGCCAGCUUGGAGUCUAGCAACUUGCCAAUGUUGCUUACCAACUGGGGGCUUGUUUUUCUUUCCCUUCCUUAAAU | 0.218 ratio |
| AGAUUCCCCCUCCUGAGACCUCCUCCGAAGUUGGAGUCUCUUACAGAUGCCUCAUCCCCUGUUAGCGUUUUAGUUUGGACCACCCAGCCUUGGACGAUUCCAGCCAACCAGGCAAUUUGC | 1.05 ratio |
| CACAGAGCAGCACCUACCCCCUCCUCCUUUCCACACCUGCAAACUCUUUUACUUGGGCUGCAUAGUUAGUGUAAUUACAUCUCAGCUUUUGAGGGCUCUGUGGCAAAUUCCCGGAUUAAA | 3.92 ratio |
| UGUAGUUUCGCGGUUCAGGCUUUGUGUGUAGUUCACUUACGGUAUUAAAUUAUUAUUCUGCUUAGCUUAUAAUAAGGAUAAUUGCAUGAUUUAAGUAUACUGAAUGUUACUCUGAAACUU | 0.502 ratio |
| UACUCAACUUUCUUGCCACAUUUUGAAUUCCAAGACAUUAUUCCUCCAGAUGACUUUCUAACGAGUGAUGAAGAAGUAGAUUUGGUUUUAUUUGGAACUAUGAGAGGACAAGUUGUUGGA | 0.303 ratio |
| AUGGAGAAGGAUUCUCUGCCUCGCUUUGUGCGCUCUGAAUUUUAUAAGGAGCUAAUCAAGUAGUCAUUUAGCCAGGCUUCCAAAAGUUGCCCUGUGAGUUGAGUUACAUCCUUUGUAGCA | 0.454 ratio |
| AUAGAUGAAAUUGAUGUGGACCAGGAAGGAAUUGCUGAAAUGAUCCUGGAUGAAAAUGCUAUAGCUCAGGUCCCACGCCCUGGCACAUCUUUGAAGCUCCCUGGCACUAACCAAACAGGA | 0.382 ratio |

Single results of other studies
| Molecule | partner | method | medium | with | measurement | value |
| --- | --- | --- | --- | --- | --- | --- |
| NPLOC4 (Homo sapiens, UniProt Q8TAT6) | UFD1 (Homo sapiens, UniProt Q92890) | cross-linking MS | cell fractions | DSSO | cross-linked residues | K404 to K267 |

Some of these lines once more (block 2):
| target | remaining activity [%] |
| --- | --- |
| PNCK (Homo sapiens, UniProt Q6P2M8) | 96 |
| MAP2K1 (Homo sapiens, UniProt Q02750) | 95.6 |
| CAMK4 (Homo sapiens, UniProt Q16566) | 101 |
| MET (Homo sapiens, UniProt P08581) | 96.2 |
| Cyclin-dependent kinase 9, with cyclin K (CDK9, Homo sapiens, UniProt P50750) | 93.5 |
